Assay results collected from several papers.
Protocols differ between the studies behind these lines.
B1: Pot1 L261S (Mus musculus, UniProt Q91WC1); sequence looked up; chain MSLVSTAPYTYTPLNLLKEGTIANVYGVVKFFKPPYVSKGTDYCSVVTIVDQTNVKLTCMLFSGNYEALPIIYKVGDIVRFHRLKIQVYKNELQGINCSGFASLTFEGTVGMPVTARTSSKVFSFTPQDQKMVEALRVWASKHISASSTLVQLCDAQPMQYYDLTCQLLGKAQVDSTAFLLKVWDGTQTVLPSWRVSTQDLTFEGDLSHIERLQSLVVDILVYDNHVQVARSIEVGCFLRLYSLHTKLQPGNSETSSSESSRLEFHLHGGTSYGRGIRVLPDTSPCVDQLKKALEGANLPVTETSTGICQSENGDSSALSNSGSGAVSPYEEERCQQVSATILTNHQHLEKTPLCAILTQKAPQQYRVRAKLRSYLPRRLSQSVKLLCPKCHSVQEVPHGDSLDKILQDAATEAPDIKLKATSLYYSKVWTTEDQGGRQVAVHFVKNNGILPASSECLILIEGGRLCEVSKLSSKFHSVMPVRSGPESLELLTLSAPFLIQGKVHHYGCKQCSSLKPIQNLNSRFHKGPWTPSSVAEALGVVPLQYVFVMVFTLDDGTGVLEAYLKDSEHFFKIPASEVLTDDDLQRSLETIMDMICPPGIKVDAYPWLECLLKSYNVTIGTERRICYQIFDTTVAENVV
B2: PI4KB Q121R (Homo sapiens, UniProt Q9UBF8-2); sequence looked up; chain MGDTVVEPAPLKPTSEPTSGPPGNNGGSLLSVITEGVGELSVIDPEVAQKACQEVLEKVKLLHGGVAVSSRGTPLELVNGDGVDSEIRCLDDPPAQIREEEDEMGAAVASGTAKGARRRRRNNSAKQSWLLRLFESKLFDISMAISYLYNSKEPGVQAYIGNRLFCFRNEDVDFYLPQLLNMYIHMDEDVGDAIKPYIVHRCRQSINFSLQCALLLGAYSSDMHISTQRHSRGTKLRKLILSDELKPAHRKRELPSLSPAPDTGLSPSKRTHQRSKSDATASISLSSNLKRTASNPKVENEDEPVRLAPEREFIKSLMAIGKRLATLPTKEQKTQRLISELSLLNHKLPARVWLPTAGFDHHVVRVPHTQAVVLNSKDKAPYLIYVEVLECENFDTTSVPARIPENRIRSTRSVENLPECGITHEQRAGSFSTVPNYDNDDEAWSVDDIGELQVELPEVHTNSCDNISQFSVDSITSQESKEPVFIAAGDIRRRLSEQLAHTPTAFKRDPEDPSAVALKEPWQEKVRRIREGSPYGHLPNWRLLSVIVKCGDDLRQELLAFQVLKQLQSIWEQERVPLWIKPYKILVISADSGMIEPVVNAVSIHQVKKQSQLSLLDYFLQEHGSYTTEAFLSAQRNFVQSCAGYCLVCYLLQVKDRHNGNILLDAEGHIIHIDFGFILSSSPRNLGFETSAFKLTTEFVDVMGGLDGDMFNYYKMLMLQGLIAARKHMDKVVQIVEIMQQGSQLPCFHGSSTIRNLKERFHMSMTEEQLQLLVEQMVDGSMRSITTKLYDGFQYLTNGIM
B3: NUP62 (Homo sapiens, UniProt P37198); sequence looked up; chain MSGFNFGGTGAPTGGFTFGTAKTATTTPATGFSFSTSGTGGFNFGAPFQPATSTPSTGLFSLATQTPATQTTGFTFGTATLASGGTGFSLGIGASKLNLSNTAATPAMANPSGFGLGSSNLTNAISSTVTSSQGTAPTGFVFGPSTTSVAPATTSGGFSFTGGSTAQPSGFNIGSAGNSAQPTAPATLPFTPATPAATTAGATQPAAPTPTATITSTGPSLFASIATAPTSSATTGLSLCTPVTTAGAPTAGTQGFSLKAPGAASGTSTTTSTAATATATTTSSSSTTGFALNLKPLAPAGIPSNTAAAVTAPPGPGAAAGAAASSAMTYAQLESLINKWSLELEDQERHFLQQATQVNAWDRTLIENGEKITSLHREVEKVKLDQKRLDQELDFILSQQKELEDLLSPLEELVKEQSGTIYLQHADEEREKTYKLAENIDAQLKRMAQDLKDIIEHLNTSGAPADTSDPLQQICKILNAHMDSLQWIDQNSALLQRKVEEVTKVCEGRRKEQERSFRITFD
UniProt Q01726, sequence (whole entry, looked up): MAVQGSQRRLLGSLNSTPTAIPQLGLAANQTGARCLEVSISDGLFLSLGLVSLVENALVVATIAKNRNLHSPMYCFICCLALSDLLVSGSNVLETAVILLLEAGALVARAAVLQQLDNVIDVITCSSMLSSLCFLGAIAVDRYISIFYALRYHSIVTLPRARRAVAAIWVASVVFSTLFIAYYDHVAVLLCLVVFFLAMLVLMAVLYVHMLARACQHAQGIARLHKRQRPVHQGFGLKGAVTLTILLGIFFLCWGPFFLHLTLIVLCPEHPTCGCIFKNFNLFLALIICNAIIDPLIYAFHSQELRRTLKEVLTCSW
UniProt P05783, sequence (whole entry, looked up): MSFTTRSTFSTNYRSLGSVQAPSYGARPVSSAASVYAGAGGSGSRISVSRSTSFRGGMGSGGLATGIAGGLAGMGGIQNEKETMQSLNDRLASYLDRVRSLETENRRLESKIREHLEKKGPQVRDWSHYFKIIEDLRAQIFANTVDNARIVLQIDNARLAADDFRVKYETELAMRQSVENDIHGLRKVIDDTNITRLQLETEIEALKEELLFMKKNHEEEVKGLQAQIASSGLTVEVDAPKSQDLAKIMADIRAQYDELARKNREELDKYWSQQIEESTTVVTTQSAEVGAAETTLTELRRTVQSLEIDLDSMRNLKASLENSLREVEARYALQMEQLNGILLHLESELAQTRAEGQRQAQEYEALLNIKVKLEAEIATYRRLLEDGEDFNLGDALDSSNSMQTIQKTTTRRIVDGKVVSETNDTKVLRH
UniProt P01009, sequence (whole entry, looked up): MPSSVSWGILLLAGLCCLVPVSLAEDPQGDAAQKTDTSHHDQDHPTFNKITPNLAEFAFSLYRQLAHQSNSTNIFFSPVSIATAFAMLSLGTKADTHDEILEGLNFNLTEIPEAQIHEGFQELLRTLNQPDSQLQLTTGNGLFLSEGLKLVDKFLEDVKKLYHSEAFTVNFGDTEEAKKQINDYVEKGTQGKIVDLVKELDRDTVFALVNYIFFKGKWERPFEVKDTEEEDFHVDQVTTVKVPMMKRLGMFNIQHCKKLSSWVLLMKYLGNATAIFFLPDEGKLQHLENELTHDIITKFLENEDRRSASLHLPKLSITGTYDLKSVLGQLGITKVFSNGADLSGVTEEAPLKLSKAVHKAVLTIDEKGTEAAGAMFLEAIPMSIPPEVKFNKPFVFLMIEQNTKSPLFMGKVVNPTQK
UniProt P20827, sequence (whole entry, looked up): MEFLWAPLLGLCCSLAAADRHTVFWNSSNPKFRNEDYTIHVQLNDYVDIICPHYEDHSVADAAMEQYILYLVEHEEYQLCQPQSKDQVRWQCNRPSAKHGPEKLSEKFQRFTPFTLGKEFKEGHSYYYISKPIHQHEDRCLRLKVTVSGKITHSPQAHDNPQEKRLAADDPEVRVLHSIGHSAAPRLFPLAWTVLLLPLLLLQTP
UniProt Q14980, sequence (whole entry, looked up): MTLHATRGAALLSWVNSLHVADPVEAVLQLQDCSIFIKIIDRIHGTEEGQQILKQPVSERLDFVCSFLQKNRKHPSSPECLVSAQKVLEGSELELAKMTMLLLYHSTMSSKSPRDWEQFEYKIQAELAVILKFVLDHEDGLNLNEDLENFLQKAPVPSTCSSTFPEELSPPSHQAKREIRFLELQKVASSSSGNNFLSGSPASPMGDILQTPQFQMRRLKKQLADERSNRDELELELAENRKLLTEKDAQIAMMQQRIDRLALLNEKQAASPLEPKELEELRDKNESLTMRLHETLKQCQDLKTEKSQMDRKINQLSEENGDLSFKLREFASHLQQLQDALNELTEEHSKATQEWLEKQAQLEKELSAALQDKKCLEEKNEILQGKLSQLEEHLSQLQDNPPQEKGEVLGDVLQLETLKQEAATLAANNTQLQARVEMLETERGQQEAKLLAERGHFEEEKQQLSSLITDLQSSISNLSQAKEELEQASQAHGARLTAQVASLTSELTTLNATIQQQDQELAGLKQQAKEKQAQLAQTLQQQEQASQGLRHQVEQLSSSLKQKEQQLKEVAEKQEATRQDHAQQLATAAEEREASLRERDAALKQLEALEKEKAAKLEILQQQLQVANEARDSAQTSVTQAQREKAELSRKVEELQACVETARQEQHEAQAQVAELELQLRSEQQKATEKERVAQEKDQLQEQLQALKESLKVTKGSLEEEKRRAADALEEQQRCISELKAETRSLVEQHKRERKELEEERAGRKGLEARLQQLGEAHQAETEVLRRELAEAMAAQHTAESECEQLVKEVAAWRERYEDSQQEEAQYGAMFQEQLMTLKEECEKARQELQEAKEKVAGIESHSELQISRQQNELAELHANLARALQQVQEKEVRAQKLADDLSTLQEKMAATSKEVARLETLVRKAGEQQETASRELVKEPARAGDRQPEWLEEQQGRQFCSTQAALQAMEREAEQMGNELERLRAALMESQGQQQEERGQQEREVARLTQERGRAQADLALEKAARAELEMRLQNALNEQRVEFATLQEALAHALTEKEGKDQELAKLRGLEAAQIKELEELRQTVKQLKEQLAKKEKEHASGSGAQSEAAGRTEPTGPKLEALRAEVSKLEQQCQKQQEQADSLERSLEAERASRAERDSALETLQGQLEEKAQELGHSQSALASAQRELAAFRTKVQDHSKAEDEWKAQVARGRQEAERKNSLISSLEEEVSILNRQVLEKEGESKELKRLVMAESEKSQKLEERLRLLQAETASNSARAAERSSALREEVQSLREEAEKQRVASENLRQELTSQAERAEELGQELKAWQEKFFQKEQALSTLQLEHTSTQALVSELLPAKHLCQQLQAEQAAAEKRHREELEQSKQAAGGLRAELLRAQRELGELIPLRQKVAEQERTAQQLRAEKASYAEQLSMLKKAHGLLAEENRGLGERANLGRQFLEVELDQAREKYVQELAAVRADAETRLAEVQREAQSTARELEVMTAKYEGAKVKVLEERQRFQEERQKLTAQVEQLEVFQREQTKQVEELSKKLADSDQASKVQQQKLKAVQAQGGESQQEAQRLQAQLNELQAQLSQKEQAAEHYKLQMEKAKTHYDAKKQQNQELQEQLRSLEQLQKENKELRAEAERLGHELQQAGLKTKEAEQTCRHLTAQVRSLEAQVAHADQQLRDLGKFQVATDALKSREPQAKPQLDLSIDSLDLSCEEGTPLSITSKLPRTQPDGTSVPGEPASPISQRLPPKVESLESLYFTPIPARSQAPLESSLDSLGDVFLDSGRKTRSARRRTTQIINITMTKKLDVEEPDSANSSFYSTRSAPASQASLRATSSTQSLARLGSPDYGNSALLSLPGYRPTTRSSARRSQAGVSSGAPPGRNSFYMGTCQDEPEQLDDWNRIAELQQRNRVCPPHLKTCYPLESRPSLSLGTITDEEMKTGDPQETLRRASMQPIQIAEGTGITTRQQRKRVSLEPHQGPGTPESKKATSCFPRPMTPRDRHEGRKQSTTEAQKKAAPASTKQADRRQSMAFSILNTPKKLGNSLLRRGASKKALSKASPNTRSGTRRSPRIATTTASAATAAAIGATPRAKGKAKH
UniProt P35222, sequence (whole entry, looked up): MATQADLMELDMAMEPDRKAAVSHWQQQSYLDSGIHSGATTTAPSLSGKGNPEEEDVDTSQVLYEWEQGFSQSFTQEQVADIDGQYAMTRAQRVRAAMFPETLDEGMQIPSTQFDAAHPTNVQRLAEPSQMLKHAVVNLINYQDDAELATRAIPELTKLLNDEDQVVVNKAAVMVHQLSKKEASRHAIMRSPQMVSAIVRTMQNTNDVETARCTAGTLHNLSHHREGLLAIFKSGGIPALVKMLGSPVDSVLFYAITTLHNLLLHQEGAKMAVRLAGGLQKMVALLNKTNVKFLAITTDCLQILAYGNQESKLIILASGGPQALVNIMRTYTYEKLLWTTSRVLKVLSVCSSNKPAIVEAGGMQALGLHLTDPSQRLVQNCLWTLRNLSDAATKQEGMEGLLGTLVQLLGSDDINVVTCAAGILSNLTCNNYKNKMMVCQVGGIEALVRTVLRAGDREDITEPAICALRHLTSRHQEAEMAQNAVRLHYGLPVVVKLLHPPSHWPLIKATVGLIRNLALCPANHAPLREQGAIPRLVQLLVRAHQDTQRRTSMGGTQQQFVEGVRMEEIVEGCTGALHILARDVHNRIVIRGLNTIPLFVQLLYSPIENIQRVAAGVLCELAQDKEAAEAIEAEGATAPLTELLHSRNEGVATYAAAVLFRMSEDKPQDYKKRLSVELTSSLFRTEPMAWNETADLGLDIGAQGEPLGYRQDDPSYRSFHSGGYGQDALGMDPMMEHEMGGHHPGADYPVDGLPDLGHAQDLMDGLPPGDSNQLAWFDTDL
UniProt O14907, sequence (whole entry, looked up): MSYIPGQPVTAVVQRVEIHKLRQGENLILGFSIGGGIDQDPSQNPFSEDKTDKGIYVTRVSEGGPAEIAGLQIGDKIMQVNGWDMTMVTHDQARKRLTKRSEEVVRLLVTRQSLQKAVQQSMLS
UniProt Q9SXB6, sequence (whole entry, looked up): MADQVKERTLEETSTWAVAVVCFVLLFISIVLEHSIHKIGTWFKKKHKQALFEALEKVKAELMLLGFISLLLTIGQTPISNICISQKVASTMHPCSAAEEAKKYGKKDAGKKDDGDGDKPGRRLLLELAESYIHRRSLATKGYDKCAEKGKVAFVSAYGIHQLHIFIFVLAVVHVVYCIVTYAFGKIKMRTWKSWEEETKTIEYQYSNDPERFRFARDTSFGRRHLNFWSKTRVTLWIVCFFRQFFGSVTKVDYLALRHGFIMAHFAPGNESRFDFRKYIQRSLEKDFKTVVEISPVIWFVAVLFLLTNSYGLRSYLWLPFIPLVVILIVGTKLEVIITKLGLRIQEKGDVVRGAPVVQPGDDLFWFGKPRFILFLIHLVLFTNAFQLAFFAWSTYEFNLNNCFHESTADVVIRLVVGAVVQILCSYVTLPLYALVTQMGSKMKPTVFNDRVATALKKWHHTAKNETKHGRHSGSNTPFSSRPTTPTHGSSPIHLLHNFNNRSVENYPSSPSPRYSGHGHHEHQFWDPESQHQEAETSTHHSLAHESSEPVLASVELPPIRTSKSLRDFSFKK

DYNC1H1 (Homo sapiens, UniProt Q14204) — cortical dynein loss half-time (NUMA1 1-705 (Homo sapiens, UniProt Q14980); time-lapse imaging; Flp-In T-REx mitotic; MG132 pre-incubation, together with: RO3306): 8.6 min
MMP9 fragment (Homo sapiens) — relative migration (Lrp1 (Rattus norvegicus, UniProt G3V928); Schwann cell migration; Schwann cells; 10 nM, 4 h; relative to: control, higher = more migration): 2 fold
TAF4 (Homo sapiens, UniProt O00268) — cross-linked residues (ALB (Homo sapiens, UniProt P02768); cross-linking MS; together with: DSSO): K955 to K219
KISLEHKTKYSNEYGD (gld-3 879-894 (Caenorhabditis elegans, UniProt Q95ZK7); sequence looked up) — competition decrease (fbf-2 164-575 (Caenorhabditis elegans, UniProt Q09312); fluorescence polarisation; peptide; relative to: wild-type GLD-3, higher = weaker competition): 13 fold
DYNLRB1/DYNLL1/DYNLT1/DYNC1LI2/DYNC1I2/DYNC1H1 dynein-1 complex (Homo sapiens) — Ka (BICD2/NINL chimera BicD2 CC, NINL LIC-BD 1-98, HaloTag, JF646 label; pull-down): > 1.6e+06 M⁻¹
ZNF197 (Homo sapiens, UniProt O14709) — cross-linked residues (FGG (Homo sapiens, UniProt P02679); cross-linking MS; together with: DSSO): K591 to K153
CAM2 (Arabidopsis thaliana, UniProt P0DH97) — β-galactosidase activity (MLO2 439-573 (Arabidopsis thaliana, UniProt Q9SXB6); LacZ reporter, split-ubiquitin yeast two-hybrid; 37 °C, together with: oNPG; higher = stronger interaction): 0.18 U/mg
FGA (Homo sapiens, UniProt P02671) — cross-linked residues (NKIRAS2 (Homo sapiens, UniProt Q9NYR9); cross-linking MS; together with: DSSO): K476 to K106
SERPINA1 (Homo sapiens, UniProt P01009) — second-order inhibition rate constant (Factor Xa mature, plasma-derived (Homo sapiens); inhibition kinetics, amidolytic activity; together with: heparin 0.1 µM): 2500 M⁻¹ s⁻¹
EPHA2 fragment, auto-phosphorylated (Homo sapiens) — kon (EFNA1 (Homo sapiens, UniProt P20827); BLI; apparent): 27000 M⁻¹ s⁻¹
ALB (Homo sapiens, UniProt P02768) — cross-linked residues (EFL1 (Homo sapiens, UniProt Q7Z2Z2); cross-linking MS; together with: DSSO): K223 to K857
SIRPA IgV domain-Fc fusion, bivalent (Homo sapiens) — EC50 (CD47 (Homo sapiens, UniProt Q08722); flow cytometry; Raji; 30 min, apparent, bivalent): 9.32 nM
ORC6 (Saccharomyces cerevisiae, UniProt P38826) — interaction screen (TAH11 (Saccharomyces cerevisiae, UniProt P47112); cross-linking MS; hits only): cross-linked
PKLPPKTYKREH (SOS1 proline-rich peptide, 1303-1314) — chemical shift perturbation (GRB2 1-58 (Homo sapiens, UniProt P62993); NMR titration; peptide): 0.11 ppm
SLC4A1 (Homo sapiens, UniProt P02730) — cross-linked residues (HAGH (Homo sapiens, UniProt Q16775); cross-linking MS; together with: DSSO or DMTMM): E17 to K300
B1 (Pot1 L261S) — relative affinity (Acd (Mus musculus, UniProt Q5EE38); co-IP; relative to: wild-type POT1a, higher = stronger binding): 2 fold
B2 (PI4KB Q121R) — relative binding (RAB11A (Homo sapiens, UniProt P62491); co-IP; HEK-293T; relative to: wild type, higher = more binding): 6.7 fold
GLP-1/MC4 receptor agonist chimeric peptide, D-Ser position 2 — EC50 (MC1R (Homo sapiens, UniProt Q01726); cAMP, agonist, HTRF; recombinant): 14.7 nM
PMESGICTIV — binding intensity (human MAGI1-3/6 PDZ construct (MBP fusion); automated holdup; peptide, crude extract; concentration not given, corrected by standard peak, unit not given; relative to: biotin control resin, higher = stronger binding): 0.0743
KRT18 (Homo sapiens, UniProt P05783) — cross-linked residues (COPB1 (Homo sapiens, UniProt P53618); cross-linking MS; cells; together with: iqPIR): K407 to K603
QSARYRDTEL — normalised SPR binding response (human MAGI1-2/6 PDZ construct (MBP fusion); surface plasmon resonance; peptide; concentration not given; higher = stronger binding): 0 normalised RU
CALLLSAPRR (GOT2 (Gallus gallus); fluorescein label) — koff (SSC1 mature (Saccharomyces cerevisiae, UniProt P0CS90); FP; peptide): 0.0025 s⁻¹
FGG (Homo sapiens, UniProt P02679) — cross-linked residues (CNTRL (Homo sapiens, UniProt Q7Z7A1); cross-linking MS; together with: DSSO): K231 to K1514
B3 (NUP62) — binding (FUS (Homo sapiens, UniProt P35637); co-IP): binds
A2M (Homo sapiens, UniProt P01023) — cross-linked residues (NALCN (Homo sapiens, UniProt Q8IZF0); cross-linking MS; together with: DSSO): K426 to K1491
CTNNB1 (Homo sapiens, UniProt P35222) — FRET fold increase (TAX1BP3 (Homo sapiens, UniProt O14907); FRET; H460; in cells; relative to: donor-only bleed-through ratio, higher = more interaction): 1.7 fold

Excerpt of the above:
DYNC1H1 (Homo sapiens, UniProt Q14204) — cortical dynein loss half-time (NUMA1 1-705 (Homo sapiens, UniProt Q14980); time-lapse imaging; Flp-In T-REx mitotic; MG132 pre-incubation, together with: RO3306): 8.6 min
TAF4 (Homo sapiens, UniProt O00268) — cross-linked residues (ALB (Homo sapiens, UniProt P02768); cross-linking MS; together with: DSSO): K955 to K219
QSARYRDTEL — normalised SPR binding response (human MAGI1-2/6 PDZ construct (MBP fusion); surface plasmon resonance; peptide; concentration not given; higher = stronger binding): 0 normalised RU
ALB (Homo sapiens, UniProt P02768) — cross-linked residues (EFL1 (Homo sapiens, UniProt Q7Z2Z2); cross-linking MS; together with: DSSO): K223 to K857
